Results of several laboratories.
Lines come from different studies, so protocols differ. Numbers after ± are the reported error.
AXL: Tyrosine-protein kinase receptor UFO (AXL, Homo sapiens, UniProt P30530)
UniProt P30530, sequence (whole entry, looked up): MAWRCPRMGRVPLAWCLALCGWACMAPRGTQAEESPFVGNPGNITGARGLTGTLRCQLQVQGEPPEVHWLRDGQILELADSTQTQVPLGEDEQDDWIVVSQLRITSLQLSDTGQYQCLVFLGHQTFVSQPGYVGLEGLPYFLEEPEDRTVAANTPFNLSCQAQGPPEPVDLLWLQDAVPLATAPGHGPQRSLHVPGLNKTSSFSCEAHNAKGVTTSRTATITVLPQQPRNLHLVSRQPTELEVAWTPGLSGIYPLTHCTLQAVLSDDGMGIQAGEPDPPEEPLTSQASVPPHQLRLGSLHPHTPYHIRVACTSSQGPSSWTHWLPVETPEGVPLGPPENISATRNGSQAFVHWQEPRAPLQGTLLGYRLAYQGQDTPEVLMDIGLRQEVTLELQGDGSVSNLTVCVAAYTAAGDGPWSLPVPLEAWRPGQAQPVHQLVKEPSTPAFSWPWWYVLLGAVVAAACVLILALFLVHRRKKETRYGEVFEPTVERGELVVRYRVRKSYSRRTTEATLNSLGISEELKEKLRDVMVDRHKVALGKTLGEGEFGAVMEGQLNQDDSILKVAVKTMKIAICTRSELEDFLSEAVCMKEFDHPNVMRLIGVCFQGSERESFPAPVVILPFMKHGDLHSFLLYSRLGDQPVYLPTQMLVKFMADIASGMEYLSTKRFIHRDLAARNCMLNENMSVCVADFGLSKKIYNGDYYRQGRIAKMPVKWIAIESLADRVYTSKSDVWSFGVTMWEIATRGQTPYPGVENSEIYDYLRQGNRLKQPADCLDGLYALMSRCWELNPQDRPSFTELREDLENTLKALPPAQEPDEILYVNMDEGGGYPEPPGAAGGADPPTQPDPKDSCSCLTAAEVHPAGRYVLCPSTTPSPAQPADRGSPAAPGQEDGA
BRD9: Bromodomain-containing protein 9 (BRD9, Homo sapiens, UniProt Q9H8M2)
UniProt Q9H8M2, sequence (whole entry, looked up): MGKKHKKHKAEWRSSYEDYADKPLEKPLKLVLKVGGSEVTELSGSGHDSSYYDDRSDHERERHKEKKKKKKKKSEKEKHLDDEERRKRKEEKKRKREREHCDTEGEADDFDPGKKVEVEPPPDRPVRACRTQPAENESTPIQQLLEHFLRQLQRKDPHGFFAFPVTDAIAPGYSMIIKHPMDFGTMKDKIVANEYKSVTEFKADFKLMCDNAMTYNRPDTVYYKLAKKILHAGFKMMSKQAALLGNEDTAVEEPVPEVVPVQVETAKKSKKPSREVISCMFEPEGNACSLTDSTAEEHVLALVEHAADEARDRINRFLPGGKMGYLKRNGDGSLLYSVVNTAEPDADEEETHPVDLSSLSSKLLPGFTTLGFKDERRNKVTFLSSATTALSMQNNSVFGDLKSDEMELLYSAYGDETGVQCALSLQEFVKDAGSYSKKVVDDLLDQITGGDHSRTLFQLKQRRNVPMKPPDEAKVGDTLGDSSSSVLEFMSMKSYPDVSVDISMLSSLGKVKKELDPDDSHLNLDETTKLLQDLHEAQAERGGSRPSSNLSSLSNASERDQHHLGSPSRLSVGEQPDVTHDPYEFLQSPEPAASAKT
CD274: Programmed cell death 1 ligand 1 (CD274, Homo sapiens, UniProt Q9NZQ7)
UniProt Q9NZQ7, sequence (whole entry, looked up): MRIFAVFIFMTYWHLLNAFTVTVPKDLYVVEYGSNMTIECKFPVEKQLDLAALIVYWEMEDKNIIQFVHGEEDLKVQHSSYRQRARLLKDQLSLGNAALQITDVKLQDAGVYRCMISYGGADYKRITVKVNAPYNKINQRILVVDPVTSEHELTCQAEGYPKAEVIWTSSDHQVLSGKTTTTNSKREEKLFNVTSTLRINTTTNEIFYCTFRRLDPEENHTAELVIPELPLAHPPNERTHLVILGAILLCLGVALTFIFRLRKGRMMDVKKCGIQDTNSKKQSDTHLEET
SIRT3: NAD-dependent protein deacetylase sirtuin-3, mitochondrial (SIRT3, Homo sapiens, UniProt Q9NTG7)
UniProt Q9NTG7, sequence (whole entry, looked up): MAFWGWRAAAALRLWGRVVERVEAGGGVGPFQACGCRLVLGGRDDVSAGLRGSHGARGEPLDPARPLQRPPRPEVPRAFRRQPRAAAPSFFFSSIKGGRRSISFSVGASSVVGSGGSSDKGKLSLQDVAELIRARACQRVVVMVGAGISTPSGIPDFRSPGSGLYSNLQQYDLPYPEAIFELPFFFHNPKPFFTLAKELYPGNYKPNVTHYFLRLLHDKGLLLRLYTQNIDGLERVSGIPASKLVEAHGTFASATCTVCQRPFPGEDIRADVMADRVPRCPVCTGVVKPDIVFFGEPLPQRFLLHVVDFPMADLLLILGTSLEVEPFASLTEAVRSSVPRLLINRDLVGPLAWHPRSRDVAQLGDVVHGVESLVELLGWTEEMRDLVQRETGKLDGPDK
Protein AF-9 with DOT1L: Protein AF-9, with DOT1L (Homo sapiens, UniProt P42568)
UniProt P42568, sequence (whole entry, looked up): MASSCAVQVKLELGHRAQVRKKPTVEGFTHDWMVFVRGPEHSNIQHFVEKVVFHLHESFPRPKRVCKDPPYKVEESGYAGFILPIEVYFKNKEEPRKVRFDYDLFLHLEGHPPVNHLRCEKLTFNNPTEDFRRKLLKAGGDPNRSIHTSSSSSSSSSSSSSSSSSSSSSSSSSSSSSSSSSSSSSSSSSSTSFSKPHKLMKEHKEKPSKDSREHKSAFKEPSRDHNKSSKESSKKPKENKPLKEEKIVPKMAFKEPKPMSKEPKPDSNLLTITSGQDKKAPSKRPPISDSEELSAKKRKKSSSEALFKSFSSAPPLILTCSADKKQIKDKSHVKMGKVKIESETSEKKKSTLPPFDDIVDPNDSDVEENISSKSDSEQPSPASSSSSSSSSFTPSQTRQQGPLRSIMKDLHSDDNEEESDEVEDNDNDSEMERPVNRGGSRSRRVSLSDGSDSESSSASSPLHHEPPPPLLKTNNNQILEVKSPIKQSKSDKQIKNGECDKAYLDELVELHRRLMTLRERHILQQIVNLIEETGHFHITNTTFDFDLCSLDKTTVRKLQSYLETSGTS
UniProt Q63881, sequence (whole entry, looked up): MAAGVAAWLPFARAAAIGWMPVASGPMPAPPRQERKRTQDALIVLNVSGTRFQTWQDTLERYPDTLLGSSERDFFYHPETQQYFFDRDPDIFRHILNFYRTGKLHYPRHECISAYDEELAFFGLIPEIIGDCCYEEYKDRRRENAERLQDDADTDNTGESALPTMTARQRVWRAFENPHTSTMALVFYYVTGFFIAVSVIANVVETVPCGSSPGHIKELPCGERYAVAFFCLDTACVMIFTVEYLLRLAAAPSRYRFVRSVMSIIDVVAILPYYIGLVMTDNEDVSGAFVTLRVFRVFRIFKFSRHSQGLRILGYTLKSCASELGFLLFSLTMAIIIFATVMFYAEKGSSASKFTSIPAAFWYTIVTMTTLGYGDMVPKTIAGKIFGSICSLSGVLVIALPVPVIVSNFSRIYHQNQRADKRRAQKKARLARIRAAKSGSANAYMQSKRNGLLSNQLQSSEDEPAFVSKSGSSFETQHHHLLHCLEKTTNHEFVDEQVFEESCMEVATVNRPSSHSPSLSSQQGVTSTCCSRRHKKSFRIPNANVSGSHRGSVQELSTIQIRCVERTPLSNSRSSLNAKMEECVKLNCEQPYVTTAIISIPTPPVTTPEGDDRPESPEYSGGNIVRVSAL
UniProt Q13233, sequence (whole entry, looked up): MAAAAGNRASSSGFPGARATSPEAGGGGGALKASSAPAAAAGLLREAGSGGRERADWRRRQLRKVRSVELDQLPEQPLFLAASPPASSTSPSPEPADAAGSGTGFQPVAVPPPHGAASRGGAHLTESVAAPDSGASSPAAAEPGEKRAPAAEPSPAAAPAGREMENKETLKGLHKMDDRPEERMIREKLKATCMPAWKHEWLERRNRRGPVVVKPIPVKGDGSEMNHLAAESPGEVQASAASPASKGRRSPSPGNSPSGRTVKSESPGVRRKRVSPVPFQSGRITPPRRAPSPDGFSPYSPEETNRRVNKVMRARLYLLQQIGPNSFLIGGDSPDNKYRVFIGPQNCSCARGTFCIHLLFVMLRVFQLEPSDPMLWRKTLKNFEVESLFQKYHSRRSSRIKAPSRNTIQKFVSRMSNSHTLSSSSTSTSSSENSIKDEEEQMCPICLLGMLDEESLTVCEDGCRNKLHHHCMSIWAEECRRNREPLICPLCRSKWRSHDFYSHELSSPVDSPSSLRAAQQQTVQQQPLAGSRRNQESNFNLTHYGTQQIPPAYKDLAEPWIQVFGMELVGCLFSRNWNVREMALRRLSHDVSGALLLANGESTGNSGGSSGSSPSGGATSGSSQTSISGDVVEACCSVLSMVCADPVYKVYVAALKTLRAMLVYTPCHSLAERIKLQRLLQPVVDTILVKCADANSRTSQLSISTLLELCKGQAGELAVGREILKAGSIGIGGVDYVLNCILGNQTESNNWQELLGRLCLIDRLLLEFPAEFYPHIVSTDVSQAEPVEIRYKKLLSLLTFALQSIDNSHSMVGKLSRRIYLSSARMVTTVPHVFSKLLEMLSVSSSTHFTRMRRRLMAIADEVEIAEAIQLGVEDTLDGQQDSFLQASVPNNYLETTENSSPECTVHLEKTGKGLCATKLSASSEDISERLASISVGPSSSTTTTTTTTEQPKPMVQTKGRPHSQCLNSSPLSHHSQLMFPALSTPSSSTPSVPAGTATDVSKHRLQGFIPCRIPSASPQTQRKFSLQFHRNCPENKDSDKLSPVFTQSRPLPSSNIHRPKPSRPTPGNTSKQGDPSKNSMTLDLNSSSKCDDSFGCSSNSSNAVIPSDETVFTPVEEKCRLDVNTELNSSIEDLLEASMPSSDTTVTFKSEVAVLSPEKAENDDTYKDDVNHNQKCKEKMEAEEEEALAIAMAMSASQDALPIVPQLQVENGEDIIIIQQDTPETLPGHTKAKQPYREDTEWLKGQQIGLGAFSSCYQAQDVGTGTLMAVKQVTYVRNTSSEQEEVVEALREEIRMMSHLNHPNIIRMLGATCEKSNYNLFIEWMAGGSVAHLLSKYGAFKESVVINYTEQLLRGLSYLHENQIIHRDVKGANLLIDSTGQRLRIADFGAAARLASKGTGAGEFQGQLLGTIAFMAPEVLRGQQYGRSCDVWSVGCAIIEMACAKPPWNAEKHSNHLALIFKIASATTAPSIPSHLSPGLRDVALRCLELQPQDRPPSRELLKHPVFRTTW

`COc1cc2nccc(Oc3ccc(NC(=O)c4cc5c(n(-c6ccccc6)c4=O)CCCC5=O)nc3)c2cc1OC` gave an inhibition of 93 to 99% (AXL; inhibitor; human patients; 6 mg once daily, day 29, combination with venetoclax).
`CN1CC(Oc2cnc(C#N)cc2-c2ccn3nc(NC(=O)C4CC4)cc3c2)C1` gave an inhibition of 0% (PHKG2 (Homo sapiens, UniProt P15735); inhibitor, KinaseProfiler panel; 1 µM).
`CC1CNCCN1S(=O)(=O)c1cccc2cnccc12` (centres unmarked) gave an inhibition of 48 ± 12% (Sulfonylurea receptor 1, Kir6.2 (Homo sapiens, UniProt Q09428+Q14654); channel activity, inside-out patch clamp; HEK293 expressing Kir6.2/SUR1; concentration not given, 7 min, together with: MgADP).
For `CC(=O)c1cc(-c2cccc(CO)c2)c2ccccn12`, the inhibition was 89.1% (BRD9; AlphaScreen; 1 µM).
The inhibition of `COc1ccc(C(=O)/C=C/c2cccc(-c3cccc(-c4ccc(CN[C@@H](CO)C(N)=O)c(OC)n4)c3C)c2)cc1` is reported as 7.7 ± 2.6% (CD274; binding, inhibitor, HTRF; 1 µM).
`NC(=O)c1ccc(-c2nc(-c3ccc4c(c3)OCO4)c(-c3ccccn3)[nH]2)cc1` has an inhibition of 37% (CSNK1D (Homo sapiens, UniProt P48730); inhibitor; 1 µM).
For `Cn1cc(-c2cnc3ccc(NC(=O)Nc4ccc(F)c(Br)c4)cc3n2)cn1`, the inhibition was 54.6% (MAP3K1 (Homo sapiens, UniProt Q13233); kinase binding, KiNativ profiling, refers to: Lys2 peptide; PANC-1 lysate; 5 µM).
`CC[C@@H]1[C@H](F)C(=O)N[C@@H]1COc1nccc2cc(C(N)=O)c(OC)cc12` gave an inhibition of 0.7% (AXL; ATP-site probe binding, inhibitor, ActivX ATP probe profiling; THP-1 cell lysate; 0.01 mM, activation loop site).
`[2H]c1cc(C)c(NC(=O)c2cnc(Nc3cc(N4CCCCC4)nc(C)n3)s2)c(Cl)c1` has an inhibition of less than 30% (RET (Homo sapiens, UniProt P07949, M918T); 0.01 µM).
The inhibition of `C=C(C)[C@@H](CC=C(C)C)C[C@@]12C[C@@H](CC=C(C)C)C(C)(C)[C@@](CC=C(C)C)(C(=O)C(C(=O)c3ccc(O)c(O)c3)=C1O)C2=O` is reported as 10% (SIRT3; 50 µM).
`N#Cc1ccc(-c2ccc3ncc(OCC4CCNCC4)nc3c2)cc1F` gave an inhibition of 10 to 30% (Protein AF-9 with DOT1L; DOT1L binding, AlphaLISA; 10 µM).
The inhibition of `CC(C)c1noc2ncc(C(=O)c3ccccc3O)cc12` is reported as 14.3% (A-type voltage-gated potassium channel KCND2 (Rattus norvegicus, UniProt Q63881); ion current, whole-cell patch-clamp; 10 µM, rKv4.2).
With `CCN(C)Cc1c(OC)cc(-c2cc(C(C)=O)n3ccccc23)cc1OC` the inhibition was 95.2% (BRD9; AlphaScreen; 1 µM).
The inhibition of `CCCCCCCCCCCCCC(=S)NCCCC[C@H](NC(=O)OCc1ccccc1)C(=O)N[C@@H](Cc1c[nH]c2ccccc12)C(=O)NC(C)C` is reported as less than 5% (SIRT3; enzyme activity, inhibitor; 10 µM).
With `Fc1cccc(Nc2ccc3ncc(OCC4CCNCC4)nc3c2)c1` the inhibition was 19 to 40% (Protein AF-9 with DOT1L; DOT1L binding, AlphaLISA; 10 µM).
The inhibition of `COc1ccc(OC)c(-c2cc(C(C)=O)n3ccccc23)c1` is reported as 92.2% (BRD9; binding, inhibitor, AlphaScreen; 1 µM).
For `Cc1c(COc2ccc(CN3CCCCC3C(=O)NCCCCNC(=O)CN(C)CCCC34CCC(c5ccccc53)c3ccccc34)cc2Br)cccc1-c1ccccc1` (centres unmarked), the inhibition was 13.8 ± 1.6% (CD274; binding, inhibitor, HTRF; 1 µM).

Repeated from above:
`CN1CC(Oc2cnc(C#N)cc2-c2ccn3nc(NC(=O)C4CC4)cc3c2)C1` gave an inhibition of 0% (PHKG2 (Homo sapiens, UniProt P15735); inhibitor, KinaseProfiler panel; 1 µM).
